Experimental data collected from several papers.
Every numbered part comes from another study and shows a few of its results, in no order.

Set 1 — technique: protein-binding microarray; form: double-stranded DNA, one strand shown; matrix: in vitro; tested at: 2540 nM top; setting: 60-bp whole probe; together with: salmon DNA 0.4 mg/ml; baseline: random background probes; reading: higher = stronger binding; shared flanks, not repeated: GCCTAGCAC … GTCTTGATTCGCTTGACGCTGCTG
Target: Interferon regulatory factor 3, full length, phosphomimetic (IRF3, Homo sapiens, UniProt Q14653, residues 1-427, S386D/S396D/S398D/S402D/T404D/S405D)
Residues (chain): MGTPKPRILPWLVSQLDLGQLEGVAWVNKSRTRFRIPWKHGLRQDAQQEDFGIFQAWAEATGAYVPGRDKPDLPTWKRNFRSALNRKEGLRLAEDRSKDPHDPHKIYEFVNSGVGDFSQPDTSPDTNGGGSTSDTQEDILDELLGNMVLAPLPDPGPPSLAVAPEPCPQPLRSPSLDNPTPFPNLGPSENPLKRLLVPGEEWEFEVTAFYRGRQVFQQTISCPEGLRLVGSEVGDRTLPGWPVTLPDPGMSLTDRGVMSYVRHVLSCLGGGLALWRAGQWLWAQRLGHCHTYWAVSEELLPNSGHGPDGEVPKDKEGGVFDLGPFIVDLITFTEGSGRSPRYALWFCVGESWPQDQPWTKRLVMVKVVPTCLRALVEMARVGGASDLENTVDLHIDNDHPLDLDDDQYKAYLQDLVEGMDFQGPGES
Oligonucleotide	fitted relative affinity [z-score]
GACGAACTGAGTATCGTGACGTGCTAG	-0.0495
GACTGTATCCTTATCCTGACGTGCTAG	4.73
TGTTTTTCATTGTTTTTCATCGTGCTA	1.34
TTAGGTATCGCGTTTCGGTTAGTGCTA	2.77
TTAGATATCGGGACTGGATTCGTGCTA	-0.03
TTAGGTCTCGGTCTTGGTTAGTGCTAG	0.662
CTAGGACTGGGTTTCGGTTAGTGCTAG	3.03

Set 2 — technique: protein binding microarray; form: double-stranded DNA, one strand shown; matrix: in vitro; tested at: not given; baseline: not given; reading: higher = stronger binding
Target: Histone acetyltransferase KAT6A, both winged helices, GST fusion (KAT6A, Homo sapiens, UniProt Q92794, residues 1-181)
Setting: 8-mer, flanks averaged, mean of 2 arrays, mostly near background
Target sequence (chain): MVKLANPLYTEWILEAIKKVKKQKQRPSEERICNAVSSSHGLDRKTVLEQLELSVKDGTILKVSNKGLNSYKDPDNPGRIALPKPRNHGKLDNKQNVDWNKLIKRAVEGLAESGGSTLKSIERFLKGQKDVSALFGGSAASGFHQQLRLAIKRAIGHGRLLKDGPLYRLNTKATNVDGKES
Oligonucleotide	E-score
ATACACTC	-0.0309
CGTACAGC	0.239
ATTTATCC	0.0406
ATCGGCAA	0.0605
CCACAACG	0.105
CGTAAGCC	0.136
CTCGAAAC	-0.0694
CCAGATGC	-0.163

Set 3 — technique: RNAcompete; form: RNA; matrix: in vitro; tested at: 20 nM; setting: 7-mer, probes averaged, single round; baseline: mean of 7-mers; reading: higher = stronger binding
Target: PABPC1L2, full length, GST fusion (mouse, UniProt A0ABA7IW68)
Construct (chain): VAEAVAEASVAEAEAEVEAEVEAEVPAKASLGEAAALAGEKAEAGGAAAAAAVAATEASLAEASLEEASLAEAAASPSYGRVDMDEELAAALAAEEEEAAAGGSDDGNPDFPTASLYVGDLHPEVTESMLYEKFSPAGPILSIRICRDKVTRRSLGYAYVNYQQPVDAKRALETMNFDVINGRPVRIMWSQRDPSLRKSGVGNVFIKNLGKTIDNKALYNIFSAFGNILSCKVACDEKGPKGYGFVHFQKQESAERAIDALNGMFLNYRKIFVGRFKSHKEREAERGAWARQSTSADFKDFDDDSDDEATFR
Oligonucleotide	7-mer Z-score
AUGUUAU	-0.139
AAAGACA	1.6
CCGUCCU	-0.494
UCCUGUG	-0.38
CACAGUG	-0.213
UGGUUAA	-0.211
AGUCCGA	-0.0699
UUGUGAU	-0.378
UAAUAGA	-0.0138

Other studies, line by line
Molecule	target	assay	system	conditions	how to read	quantity	value
PhoQ, residues 284 288 289 292 302 303 AMDMFI	PhoP, residues 12 14 15 18 19 MHTVL (Escherichia coli, UniProt P23836)	Sort-seq, measured: YFP reporter	E. coli	PhoQ-PhoP variant library, together with: 10 µM Mg2+	baseline: high Mg2+ state, higher = stronger signaling	fold induction	0.942

A few entries again (set 3):
Oligonucleotide	7-mer Z-score
UUGUGAU	-0.378
UAAUAGA	-0.0138
